Published values pooled from the literature.
Each numbered part is a random draw from the data of one study; scales do not carry over between parts.

Sample 1
Target: Histone acetyltransferase KAT6A, both winged helices, GST fusion (KAT6A, Homo sapiens, UniProt Q92794, residues 1-181)
Method: protein binding microarray
Form: double-stranded DNA, one strand shown
Sample: in vitro
Concentration: not given
Notes: 8-mer, flanks averaged, mean of 2 arrays, mostly near background
Relative to: not given
Direction: higher = stronger binding
Construct (chain): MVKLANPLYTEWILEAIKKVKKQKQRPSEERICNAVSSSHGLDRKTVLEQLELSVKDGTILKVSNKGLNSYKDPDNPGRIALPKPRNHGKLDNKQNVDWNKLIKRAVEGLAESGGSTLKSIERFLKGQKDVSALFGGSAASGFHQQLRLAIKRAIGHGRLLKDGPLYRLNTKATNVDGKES
With `CGTTTTCC` the E-score was 0.085.
`GAGAGATC` has an E-score of -0.223.
`ATGGTAGA` has an E-score of -0.0877.
`AGTCGGTA` gave an E-score of 0.0118.

Sample 2
Target: Protein C-ets-1 (ETS1, Homo sapiens, UniProt P14921, residues 1-441, full length assumed)
Chain of UniProt P14921 (whole entry, looked up): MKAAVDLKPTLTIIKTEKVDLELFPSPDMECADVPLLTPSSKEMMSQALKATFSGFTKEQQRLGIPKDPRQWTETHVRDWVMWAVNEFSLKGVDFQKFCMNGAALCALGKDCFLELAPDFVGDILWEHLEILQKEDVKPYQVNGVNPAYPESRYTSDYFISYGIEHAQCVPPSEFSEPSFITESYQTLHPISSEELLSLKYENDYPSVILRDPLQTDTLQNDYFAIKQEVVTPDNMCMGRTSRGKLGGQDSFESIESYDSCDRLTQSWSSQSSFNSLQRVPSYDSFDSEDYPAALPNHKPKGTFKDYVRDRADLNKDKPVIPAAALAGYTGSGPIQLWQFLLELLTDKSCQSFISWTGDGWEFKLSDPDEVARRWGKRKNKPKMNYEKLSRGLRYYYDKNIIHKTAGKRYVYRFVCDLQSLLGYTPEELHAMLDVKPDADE
Method: protein-binding microarray
Form: double-stranded DNA, one strand shown
Sample: in vitro
Concentration: not given
Notes: k-mer, scored over probes, only values ≥0.25
Direction: higher = stronger binding
`TACGGAAA` gave an E-score of 0.399.
With `CACTTCCA` the E-score was 0.416.
`AGCTTCCC` gave an E-score of 0.28.
The E-score of `CAACGTCC` is reported as 0.283.
`ATGGCCGG` has an E-score of 0.264.

Sample 3
Target: RING finger protein unkempt homolog, zinc fingers 1-6, GST-SBP tag (UNK, Homo sapiens, UniProt Q9C0B0, residues 30-357)
Chain of UniProt Q9C0B0 (30-357, looked up): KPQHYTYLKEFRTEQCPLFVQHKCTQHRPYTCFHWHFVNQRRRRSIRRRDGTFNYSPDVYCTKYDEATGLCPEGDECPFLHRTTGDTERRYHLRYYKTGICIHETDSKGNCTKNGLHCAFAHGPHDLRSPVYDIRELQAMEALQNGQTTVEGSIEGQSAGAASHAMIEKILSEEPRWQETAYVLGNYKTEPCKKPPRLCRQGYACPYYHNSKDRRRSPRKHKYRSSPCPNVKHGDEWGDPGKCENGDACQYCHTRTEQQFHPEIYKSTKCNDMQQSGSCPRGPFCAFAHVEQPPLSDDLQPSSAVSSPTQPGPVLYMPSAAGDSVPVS
Method: RNA Bind-n-Seq
Form: RNA
Sample: in vitro
Concentration: not given
Notes: RNA with constant flanks, human-mouse chimeric sites, ends assumed
Relative to: input RNA pool
Direction: higher = stronger binding
With `GGGAGUUCUACAGUCCGACGAUCUUGCUACUGACUCCCUGGGUCAAGUUCCUGUGGGAAUCAUACAGGCAGUGUUUGGACCUUCUUAGAAACAAUUCUAGAGUAGAGCGCCUUUACCAUGAUAUCGCCCAACAAGCUUUCAAACAACAGAGGAUUGAGCAUCA` the bound/input enrichment was 0.252 ratio.
`GGGAGUUCUACAGUCCGACGAUCCACAGAGCAGCACCUACCCCCUCCUCCUUUCCACACCUGCAAACUCUUUUACUUGGGCUGAAUAUUUAGUGUAAUUAACAUCGCAGCUUGAGGGCUCCUGUGGCAAAUUCCCGGAUUAAACAACAGAGGAUUGAGCAUCA` gave a bound/input enrichment of 1.41 ratio.
With `GGGAGUUCUACAGUCCGACGAUCAAAUCAUGUGUGUCCAAUAUUGAAAGUGCUUUAUCUACACUCCAAUAUGUAAGCAGUAUAGUAGUUUCUUUAGAGAAUAGGUCAGCCAUUGUAAAGUACAAUGCAAGCUUAGUCACUCCACAACAGAGGAUUGAGCAUCA` the bound/input enrichment was 13.1 ratio.
The bound/input enrichment of `GGGAGUUCUACAGUCCGACGAUCAAAUCGUGUGUGUCCAAUAUUGAAAGUGCUUUAUCUACACUCCAGUAUGUAAGCAGUAUAGUAGUUUCUUUAGAGAAUAGGUCUGCCAUUGUAAAGUACAAUGCAAGCUUAGUCACUCCACAACAGAGGAUUGAGCAUCA` is reported as 1.74 ratio.

Mixed results
`PhoQ, residues 284 288 289 292 302 303 SSCLAV` gave a fold induction of 4.56 (PhoP, residues 12 14 15 18 19 IFFTR (Escherichia coli, UniProt P23836); Sort-seq, item: YFP reporter; E. coli; PhoQ-PhoP variant library, added: 10 µM Mg2+; relative to: high Mg2+ state, higher = stronger signaling).

Repeated from above (sample 1):
`GAGAGATC` has an E-score of -0.223.
